Experimental data pooled from the literature.
A part holds a random share of what one study measured.

Block 1
Target: Ras GTPase-activating protein-binding protein 1, full length (G3BP1, Homo sapiens, UniProt Q13283)
UniProt Q13283, sequence (whole entry, looked up): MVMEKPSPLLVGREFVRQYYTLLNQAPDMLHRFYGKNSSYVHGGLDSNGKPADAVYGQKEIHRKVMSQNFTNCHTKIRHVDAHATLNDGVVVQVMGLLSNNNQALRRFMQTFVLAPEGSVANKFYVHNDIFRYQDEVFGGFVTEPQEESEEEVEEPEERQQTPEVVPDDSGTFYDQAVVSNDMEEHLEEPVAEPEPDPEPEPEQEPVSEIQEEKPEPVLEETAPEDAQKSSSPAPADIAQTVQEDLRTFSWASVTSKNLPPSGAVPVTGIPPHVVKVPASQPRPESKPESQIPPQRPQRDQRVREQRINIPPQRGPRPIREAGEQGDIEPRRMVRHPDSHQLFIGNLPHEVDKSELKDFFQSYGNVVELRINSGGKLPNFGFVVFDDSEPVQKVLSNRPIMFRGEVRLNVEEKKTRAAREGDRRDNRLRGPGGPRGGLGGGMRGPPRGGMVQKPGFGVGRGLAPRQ
Technique: RNA Bind-n-Seq
Molecule type: RNA
Sample: in vitro
Concentration: 200 nM
Notes: whole 134-nt RNA, ends assumed
Together with: 150 mM LiCl
Baseline: input library
Reading: higher = stronger binding
Library: 7-deaza-guanosine replaces G
Constant ends, left off below: GGGAGUUCUACAGUCCGACGAUC … UGGAAUUCUCGGGUGUCAAGG
| Sequence | log2 enrichment |
| --- | --- |
| UUCUGACUCAGAAUGUGCCAAAAAGGCUUUGGAACAACUUAAUGGAUUUGAACUAGCAGGAAGACCAAUGAAAGUUGGUCAUGUUACUGA | -2.68 |
| GUCCUGUGCUACACAUCGUAUGUACCGAAUCGGAAAAAGGGGAAAAAGGGGAAAAAGGGAAAGUAUUAUGUUACGCCGUUCGGAUCUGCA | 0.0327 |
| GCAGGAAGUAAAAACAAAUGGAAAUGCUUCGCAUAGUGGCAGGGGUGGGGGUUGCUAAGGAAAGGGUGGGAUGGGAGUGGGUAAAGAGUU | 0.366 |
| CAAGUCCUGUGCUACACAUCGUAUGUACCGAAUCGGGCCCGGGGCCCGGCCCGGGGAAAGUAUUAUGUUACGCCGUUCGGAUCUGCACUU | -1.77 |
| GCAGGAAGUAAAAACAAAUGGAAAUGCUUCGGAUAGUGGCAGGGGUGGGGGUAGCUAAGGAAAGGGUGGGAUGGGAGUGGGUAAAGAGUU | 0.547 |
| AGUCCUGUGCUACACAUCGUAUGUACCGAAUCGGGGAAAGGGGUGGGGUUUUUGGGGAAAGUAUUAUGUUACGCCGUUCGGAUCUGCACU | -0.229 |
| UCAAGUCCUGUGCUACACAUCGUAUGUACCGAAUCGGAGGUUUUUUUGGUUUGGAAAGUAUUAUGUUACGCCGUUCGGAUCUGCACUUCC | -1.36 |
| UCAAGUCCUGUGCUACACAUCGUAUGUACCGAAUCGGGAGGGAAAAAGGGAGGGAAAGUAUUAUGUUACGCCGUUCGGAUCUGCACUUCC | 0.0156 |
| GUGCUACACAUCGUAUGUACCGAAUCGGGGAAAAAAAGGGGUUUUUUUGGGGUUUUUUUGGGGAAAGUAUUAUGUUACGCCGUUCGGAUC | -1.67 |
| UGGCCCUGGUGGCAUGCGGGGAGGAAGAGGUGGCCUCAUGGAUCGUGGUGGUCUCGGUGGAAUGUUCAGAGGUGGCCGUGGUGGAGACAG | 0.496 |
| UGUGCUACACAUCGUAUGUACCGAAUCGUGUGUGUGUGUGUGUGUGUGUGUGUGUGUGUGUGUAAAGUAUUAUGUUACGCCGUUCGGAUC | -0.24 |

Block 2
Target: RNA binding protein fox-1 homolog 2, RRM domain, GST-SBP tag (RBFOX2, Homo sapiens, UniProt O43251-10, residues 100-194)
Technique: RNA Bind-n-Seq
Molecule type: RNA
Sample: in vitro
Concentration: 365 nM
Notes: natural RNA segment, single round, ends assumed
Baseline: no-protein control
Reading: higher = stronger binding
Constant ends, left off below: GGGAGUUCUACAGUCCGACGAUC … UGGAAUUCUCGGGUGCCAA
Construct (chain): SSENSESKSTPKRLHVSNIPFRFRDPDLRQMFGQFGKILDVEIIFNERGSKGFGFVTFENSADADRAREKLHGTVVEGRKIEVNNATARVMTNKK
| Sequence | RBNS enrichment (R) |
| --- | --- |
| CAGCGCAGCCUCUUGUGUAAGGACUGACUACCUGGACUGAUCGCCUGACAGAUCCCACCUGCCUGUCCACUGCCCAUGACUGAGCCCAGCCCCAGCCCGGGUCCAUUGCC | 1.46 |
| UGGGUGAUUAUGAUUGACACUCACCUGCCCUGGAAAGCCAGGGUGUGAGAUGGGUGUCUGGGAGUGGUGCCAUGGAAGUGGCGAUUCUGCUUCUUAUAAAUACCUCCAAA | 0.24 |
| UGUUUUUAGUUUUAUGUACUCAUUUCCCUUUGUUUUCCUCAAACAGCAUGAUUUUUUUGCACAUGUAGAAAUUUUUUAAAAGAAAGAAAUUAGUACAUCAUUUUCUCUGG | 1.91 |
| GAUGGACCCGGCCCAUCCCUGGGGACGUGCUGGCGUGGCAGGUCCAGAGAGCUGCACCCUGCACGGGGCACCGCACCGCUUCCCUCCGCGCAGCUCUUCUGCCUGGUUUU | 0.957 |
| UGGGACAGACCUCAGAGAUUGUGAAUGCAGUGCCAAGCUCACAGGCUGCAAGGGCCAGGCCAGAAAAGGGCGGGCCUGCAGCCUGCACCCCCCACCUUCCCCAACCCUUC | 0.307 |
| AAGCAUGUUUUUGUGGUUAUAAAAACACUUAAAAAUCCUGAUAAUUCUGGGCUUGUAUAAUGCCUGUUGAUCUUGCCCUCUUAAUCAGUUUAUUGUUAUUCACAAAUGCA | 12.4 |
| AUGGUGCCAACCAUCGGUUGUUUGGCAGCAGCUUUGAACGUAGCGCCUGUGAACUCAGGAAUGCACAGUUGACUUGGGAAGCAGUAUUACUAGAUCUGGAGGCAACCACA | 1.2 |
| CAGGCCUCAGGAGUGGUCAGGACCACCAAGCCCCUCCUCUCCCCCUCCACACCUCUAGACCUGGGGCCUCCGGAACCCCCAGCAGGCUGGGCUUAUACUAGCUCCUGACU | 0.4 |
| UCUCCCCGCUACUUUGGCAUUGAGGGUUCCCAGACCUUGGGGUUUGCCUACACUUUCUAUGAAUAACAAGUCAUUUCUGGUUUACACUGUCUUUUUAGAGGAAAAGGACU | 0.446 |
| AUCAAGAGACCAUUUUAUGACACAUUAAGAAGAAAGAACCUUUUUGAAACAAACUCCAGGCCCUUUGUUGCCAGUGGCUGGGCCUAAGGGUUGCCCCGGGACCGUGCUCA | 0.851 |
| AUAUUUCUGUCCCAUCAGGAAAACUGAAGGAUAUGGGGAAUCAUUGGUUAUCUUCCAUUGUGUUUUUCUUUAUGGACAGGAGCUAAUGGAAGUGACAGUCAUGUUCAAAG | 0.372 |
| CUGGUACCAGGGAAGAGGGAGAAUUAAUUUAUUGUGCAAAUGCUGGUAUUUCUUACAUGAUUUUUUGUUUUCCUCUGUUGCUAGAUAAAUAGAAACUAAUAAUAGCUCUA | 0.58 |

Block 3
Target: Prothrombin, mature alpha-thrombin (F2, Homo sapiens, UniProt P00734)
Technique: aptamer microarray, sandwich
Molecule type: DNA with 2'F-ANA
Sample: in vitro
Concentration: 200 nM
Notes: whole 15-mer aptamer, many near background
Together with: Cy3 exosite-II aptamer, 400 nM
Reading: higher = stronger binding
Sequence: GGTTGGTGTGGTTGG
| Modification | mean fluorescence intensity [a.u.] |
| --- | --- |
| 2'F-ANA at 3 4 5 9 15 | 107 |
| 2'F-ANA at 1 2 6 7 9 | 142 |
| 2'F-ANA at 1 2 3 4 7 8 10 | 60.7 |
| 2'F-ANA at 4 7 9 10 13 15 | 114 |
| 2'F-ANA at 1 2 5 9 | 65 |
| 2'F-ANA at 1 4 10 11 12 | 58.5 |
| 2'F-ANA at 1 2 4 5 6 8 9 11 12 13 14 | 48.7 |
| 2'F-ANA at 1 3 4 5 7 8 9 10 12 14 15 | 48.8 |
| 2'F-ANA at 1 4 5 6 8 11 | 51.2 |
| 2'F-ANA at 3 8 11 12 15 | 1370 |
| 2'F-ANA at 1 2 3 4 5 12 15 | 110 |
| 2'F-ANA at 4 5 6 7 8 9 15 | 70.8 |
| 2'F-ANA at 1 3 4 5 10 12 13 14 15 | 65.1 |
| 2'F-ANA at 1 2 3 4 5 9 11 13 | 53.9 |
| 2'F-ANA at 2 3 6 8 10 11 | 313 |
| 2'F-ANA at 3 6 7 9 11 15 | 707 |
| 2'F-ANA at 2 4 5 8 14 | 56.6 |
| 2'F-ANA at 2 3 5 6 9 10 11 12 14 15 | 50.5 |
| 2'F-ANA at 3 5 6 7 8 10 12 14 | 54.8 |
| 2'F-ANA at 1 3 10 14 | 57.1 |
| 2'F-ANA at 1 2 4 5 7 9 11 12 13 15 | 63 |

Block 4
Target: Histone acetyltransferase KAT6A, both winged helices, GST fusion (KAT6A, Homo sapiens, UniProt Q92794, residues 1-181)
Technique: protein binding microarray
Molecule type: double-stranded DNA, one strand shown
Sample: in vitro
Concentration: not given
Notes: 8-mer, flanks averaged, mean of 2 arrays, mostly near background
Baseline: not given
Reading: higher = stronger binding
Target sequence (chain): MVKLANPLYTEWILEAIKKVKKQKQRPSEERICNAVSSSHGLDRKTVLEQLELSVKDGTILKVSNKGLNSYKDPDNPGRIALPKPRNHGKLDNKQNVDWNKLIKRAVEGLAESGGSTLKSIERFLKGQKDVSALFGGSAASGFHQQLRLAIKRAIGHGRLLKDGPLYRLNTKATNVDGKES
| Sequence | E-score |
| --- | --- |
| CCCAAACA | -0.302 |
| GTAGTCGA | 0.0438 |
| GCTCTAAC | 0.00184 |
| ATCGCCGG | 0.271 |
| AGTATTCG | -0.0389 |
| AGGAGCCA | -0.222 |
| TGAAGTCA | -0.146 |
| CAAGAGGA | -0.196 |
| CATATTAG | -0.0511 |
| GGACTTAC | -0.0106 |
| CTGGTGAA | -0.0224 |
| ACCTTTCA | -0.0931 |
| CCCGTCTA | 0.188 |
| GCGCTGCC | 0.257 |
| GGTAGATA | 0.0115 |
| GGACGATA | -0.143 |
| TCTCTAAA | -0.108 |
| CATCAGTC | -0.0789 |
| ACAACGCA | 0.134 |
| TGAAGAAA | -0.0441 |
| AGTGCTCG | -0.142 |
| ATACCTGA | -0.0345 |

Block 5
Target: UBE2G1 UBC core domain (UniProt P62253)
Technique: yeast two-hybrid
Sample: yeast
Notes: mostly zero background
Baseline: not given
Reading: higher = stronger interaction
B1: UHRF2 RING domain (UniProt Q96PU4); chain CGGDPEKKCHSCSCRVCGGKHEPNMQLLCDECNVAYHIYCLNPPLDKVPEEEYWYCPSCKTDSSEVVKAGER
B2: PHF21A RING domain (UniProt Q96BD5); chain SPTSTDGDIHEDFCSVCRKSGQLLMCDTCSRVYHLDCLDPPLKTIPKGMWICPRCQDQMLKKEEAIPW
B3: TRIM63 RING domain (UniProt Q969Q1); chain PMENLEKQLICPICLEMFTKPVVILPCQHNLCRKCANDIFQAANPYWTSRGSSVSMSGGRFRCPTCRHEVIMDRHGV
B4: ARK2C RING domain (UniProt Q6ZSG1); chain EGEESDTDEKCTICLSMLEDGEDVRRLPCMHLFHQLCVDQWLAMSKKCPICRVDIETQLGAD
Target sequence (chain): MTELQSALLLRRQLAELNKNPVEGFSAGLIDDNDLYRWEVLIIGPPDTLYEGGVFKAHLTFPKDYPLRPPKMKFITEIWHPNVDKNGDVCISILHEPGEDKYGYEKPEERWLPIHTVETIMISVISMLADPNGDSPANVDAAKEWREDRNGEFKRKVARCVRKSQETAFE
| Molecule | lacZ reporter activity |
| --- | --- |
| EDEVSDNSAECVVCLSDVRDTLILPCRHLCLCNTCADTLRYQANNCPICRLPFRALLQIR (RNF157 RING domain (UniProt Q96PX1)) | 0 |
| YWAMDSTFELCKICAESNKDVKIEPCGHLLCSCCLAAWQHSDSQTCPFCRCEIKGWEAVS (CBLC RING domain (UniProt Q9ULV8)) | 0 |
| B1 (UHRF2 RING domain) | 0 |
| QLRRLQEERTCKVCMDKEVSIVFIPCGHLVVCKDCAPSLRKCPICRSTIKGTVRTF (BIRC3 RING domain (UniProt Q13489)) | 0 |
| FASPPDSNFVCSVCHGVLKRPARLPCSHIFCKKCILRWLARQKTCPCCRKEVKRKKVVH (RNF151 RING domain (UniProt Q2KHN1)) | 0 |
| DDENSDNSNECVVCLSDLRDTLILPCRHLCLCTSCADTLRYQANNCPICRLPFRALLQIR (MGRN1 RING domain (UniProt O60291)) | 0 |
| B2 (PHF21A RING domain) | 0 |
| RLTMMWEEVTCPICLDPFVEPVSIECGHSFCQECISQVGKGGGSVCPVCRQRFLLKNLRP (TRIM21 RING domain (UniProt P19474)) | 0 |
| B3 (TRIM63 RING domain) | 0 |
| B4 (ARK2C RING domain) | 0 |
| QLRRLQEERTCKVCMDKEVSVVFIPCGHLVVCQECAPSLRKCPICRGIIKGTVRTF (BIRC2 RING domain (UniProt Q13490)) | 0 |

For quick reference, copied from above (block 3):
| Modification | mean fluorescence intensity [a.u.] |
| --- | --- |
| 2'F-ANA at 1 2 4 5 6 8 9 11 12 13 14 | 48.7 |
| 2'F-ANA at 1 2 4 5 7 9 11 12 13 15 | 63 |
| 2'F-ANA at 4 7 9 10 13 15 | 114 |
| 2'F-ANA at 1 4 10 11 12 | 58.5 |
| 2'F-ANA at 1 3 10 14 | 57.1 |
| 2'F-ANA at 2 4 5 8 14 | 56.6 |
| 2'F-ANA at 1 2 3 4 5 9 11 13 | 53.9 |
| 2'F-ANA at 3 6 7 9 11 15 | 707 |
| 2'F-ANA at 1 2 3 4 5 12 15 | 110 |
| 2'F-ANA at 2 3 5 6 9 10 11 12 14 15 | 50.5 |
| 2'F-ANA at 1 2 5 9 | 65 |
| 2'F-ANA at 1 3 4 5 7 8 9 10 12 14 15 | 48.8 |
| 2'F-ANA at 1 4 5 6 8 11 | 51.2 |
